Experimental data from different studies.
Compare with care: the assays were run in different laboratories. Values joined by “and” are separate records of one study, mostly repeats; a detail may differ. ± marks the error that the study gave.
Gria1/Gria2: Glutamate receptor AMPA 1/2 (Gria1/Gria2, Rattus norvegicus, UniProt P19490+P19491)
Sodium- and chloride-dependent glycine transporter 2: Sodium- and chloride-dependent glycine transporter 2 (Homo sapiens, UniProt Q9Y345)
17-beta-hydroxysteroid dehydrogenase 13: 17-beta-hydroxysteroid dehydrogenase 13 (Homo sapiens, UniProt Q7Z5P4)

| SMILES | target | test | system | conditions | scale | quantity | result |
| --- | --- | --- | --- | --- | --- | --- | --- |
| CCCCCCCCCCCCC/C=C/C=O | Multifunctional methyltransferase subunit TRM112-like protein (TRMT112, Homo sapiens, UniProt Q9UI30) | competitive isoTOP-ABPP, measured: HSPC152 cysteine peptide | Ramos soluble proteome | 100 µM, with: iodoacetamide probe | relative to: DMSO over compound-treated, higher = stronger cysteine blockade | isoTOP-ABPP competition ratio | 1 |
| CCN(CC)C(=O)c1ccc(O)c(OC)c1 | Heat shock protein HSP 90-alpha, N-terminal domain (HSP90AA1, Homo sapiens, UniProt P07900) | binding, ligand-observed NMR titration |  | 9.69 µM, ligand to protein ratio 548 |  | bound ligand fraction | 0.16 |
| OC[C@H]1c2[nH]cnc2[C@H](O)[C@@H](O)[C@@H]1O | bglA (Thermotoga maritima, UniProt Q08638) | ITC |  | pH 6.8, 25 °C |  | ΔH | -18.4 ± 1.4 kJ/mol |
| CC(=O)NCCCC[C@H](NC(=O)CNC(=O)CNC(=O)[C@@H](NC(=O)[C@H](CO)NC(=O)[C@H](CCCCN)NC(=O)[C@H](CCCNC(=N)N)NC(=O)[C@H](C)NC(=O)[C@@H](NC(=O)[C@H](CCC(N)=O)NC(=O)[C@H](CCCCN)NC(=O)[C@@H](NC(=O)[C@H](CCCNC(=N)N)NC(=O)[C@H](C)N)[C@@H](C)O)[C@@H](C)O)[C@@H](C)O)C(=O)N[C@@H](C)C(=O)N1CCC[C@H]1C(=O)N[C@@H](CCCNC(=N)N)C(=O)N[C@@H](CCCCN)C(=O)N[C@@H](CCC(N)=O)C(=O)O | YEATS domain-containing protein 4 (Homo sapiens, UniProt O95619, E109A) | differential scanning fluorimetry |  | with: 50 µM peptide | relative to: buffer-only reference | ΔTm | 0.32 °C |
| N#C[Se]CCCCCCOc1ccc2c(-c3ccccc3)cc(=O)oc2c1 | CA12 (Homo sapiens, UniProt O43570) | stopped-flow CO2 hydration |  |  | relative to: Ki CA I over Ki CA XII | selectivity ratio | > 609 |
| O=C(O)Cc1cc2c(cc1C(=O)c1ccccc1I)OCO2 | Gria1/Gria2 | glutamate-evoked current, whole-cell patch clamp | HEK-293T | concentration not given | relative to: glutamate alone | current amplitude ratio | 2.43 ± 0.2 |
| CCCCCC(O)/C=C/C=O (stereo not shown) | Isoleucine--tRNA ligase, cytoplasmic (Homo sapiens, UniProt P41252) | competitive isoTOP-ABPP, measured: IARS cysteine peptide | Ramos soluble proteome | 100 µM, with: iodoacetamide probe | relative to: DMSO over compound-treated, higher = stronger cysteine blockade | isoTOP-ABPP competition ratio | 1.1 |
| CC(C=CC=C(C)C=CC1=C(C)CCCC1(C)C)=CC=O | Rhodopsin (RHO, Homo sapiens, UniProt P08100, T17M) | immunostaining, measured: opsin | COS-7 transfected | 0.05 µM, unit not given | relative to: surface over total stained cells | plasma membrane localization | 0 |
| O=C(NO)c1ccc(Cn2c3c(c4cc(Br)ccc42)SC(c2ccccc2)C3)s1 (racemic) | Histone deacetylase 8 (Schistosoma mansoni, UniProt A5H660) | X-ray crystallography |  | ligand-Lys20 side chain, chain B, BR1-CG |  | interatomic distance | 3.59 Å |
| O[C@@H]1[C@@H](O)[C@H](F)C=C[C@H]1O | GBA1 (Homo sapiens, UniProt P04062) | enzyme activity, inhibitor |  | pH 5.2 |  | kinact | 0.002 s⁻¹ |
| O=C1c2sc(-c3ccc(N4CCC(F)C4)nc3F)nc2CCN1c1cccnc1 (stereo not shown) | TAR DNA-binding protein 43, aggregated (TARDBP, Homo sapiens, UniProt Q13148) | saturation autoradiography | human, FTLD-TDP type A brain sections | 8.29 nM |  | specific binding | 55.7 nM |
| CCN1CCN(Cc2ccc(C(=O)Nc3ccc(C)c(NCc4cnc5[nH]ccc5c4OC)c3)cc2C(F)(F)F)CC1 | Tyrosine-protein kinase ABL1, non-phosphorylated (ABL1, Homo sapiens, UniProt P00519, Q252H) | binding, competition with immobilised ligand |  | 1 µM |  | remaining binding | 2.6% |
| COc1cc(C2C(NC(=O)c3ccc(NC(=O)OC(C)(C)C)cc3)(C(=O)O)C(c3ccc(OC(=O)c4cccs4)c(OC)c3)C2(NC(=O)c2ccc(NC(=O)OC(C)(C)C)cc2)C(=O)O)ccc1OC(=O)c1cccs1 (stereo not shown) | Glucagon-like peptide 1 receptor, with β-arrestin 1 (GLP1R, Homo sapiens, UniProt P43220) | β-arrestin 1 recruitment, agonist, BRET |  |  | relative to: GLP-1 response | Emax | 10.9 ± 2.78% |
| O=C(O)Cc1cc2c(cc1C(=O)c1ccccc1Br)OCO2 | Gria1/Gria2 | glutamate-evoked current, whole-cell patch clamp | HEK-293T | concentration not given |  | current amplitude | 116 ± 10 pA |
| CC1(C)C[C@@H](Nc2cccc(-c3sc(C(=O)O)c(OCC(=O)O)c3Cl)c2)CCN1S(=O)(=O)Cc1cccc(NC(=O)CN2CCC(c3ccc4c(c3)oc(=O)n4C3CCC(=O)NC3=O)CC2)c1 (stereo partly shown) | PTPN2 (Homo sapiens, UniProt P17706) | degrader, bio-layer interferometry |  | 15.6 nM, biotinylated protein immobilised | higher = more binding | BLI binding response | 0.0339 a.u. and 0.0648 a.u. |
| CCCCCCCCCCCCCCCc1cccc(OCC)c1C(=O)Nc1ccc(Cl)c(C(F)(F)F)c1 | KAT5 (Homo sapiens, UniProt Q92993) | SPR |  | 0.63 µM | higher = more binding | SPR binding response | 0.146 RU |
| COC(=O)[C@]1(C(C)C)C=C(C(=O)Nc2cccc(C(=O)Nc3ccc(Nc4nccc(-c5cccnc5)n4)c(C)c3)c2)C(=O)CC1 | MAPK8 (Homo sapiens, UniProt P45983) | kinase activity, inhibitor |  | 0.5487 µM, unit not given, with: 10 mM glutathione | relative to: no inhibitor | remaining activity | 0.616 |
| COc1cc2ncnc(Nc3ccc(-c4ccccc4)cc3)c2cc1OC | SMUG1 (Homo sapiens, UniProt Q53HV7) | enzyme activity, activator, fluorescence |  | 2 µM | relative to: control | activity | 120 ± 30% |
| CC(C)=CC1OC(C)(C)C2C=C3C(=O)C(Cl)=CC(O)C3C3C(O)C4OC4C(=O)C132 (stereo not shown) | Tyrosine-protein kinase ABL1, phosphorylated (ABL1, Homo sapiens, UniProt P00519, E255K) | cell-free assay, competition with immobilised ligand |  | 10 µM |  | remaining binding | 69% |
| CCCCCc1ccc(Cc2cc(/C=C/C(=O)OC)cc3cccnc23)cc1 | Glideosome-associated protein 50 (GAP50, Plasmodium falciparum, UniProt Q8I2X3) | surface plasmon resonance |  |  |  | kon | 4590 M⁻¹ s⁻¹ |
| CC1=CC(C)=[N+]2C1=C(CCCN1CCCC(O)C1)c1c(C)cc(C)n1[B-]2(F)F (stereo not shown) | Sodium- and chloride-dependent glycine transporter 2 | MS binding competition |  | 10 µM |  | remaining specific binding | 88.2 ± 5.2% |
| CC(=O)c1cnc(NS(=O)(=O)c2ccc(C(F)(F)F)c(Cl)c2)nc1 | 17-beta-hydroxysteroid dehydrogenase 13 | enzyme activity | human hepatocytes, scramble siRNA, culture medium | 120 h | relative to: scramble siRNA control | oxidized product ratio | 0.448 and 0.447 and 0.409 and 0.483 |
| CC1=CC(C)=[N+]2C1=C(CCCCN1CCC(O)(c3ccccc3)CC1)c1c(C)cc(C)n1[B-]2(F)F | Sodium- and chloride-dependent glycine transporter 2 | MS binding competition |  | 10 µM |  | remaining specific binding | 64.7 ± 1.4% |
| CC(C)[C@@H]1NC(=O)[C@H](Cc2ccccc2)NC(=O)CSC[C@@H](C(N)=O)NC(=O)[C@H](CCC(=O)O)NC(=O)[C@H](CO)NC(=O)[C@H](Cc2c[nH]c3cccc(Cl)c23)NC(=O)[C@H](C2CCCCC2)NC(=O)[C@H](C(C)C)NC(=O)[C@H](Cc2ccc(O)cc2)NC(=O)[C@H](CC(=O)O)NC(=O)[C@H](Cc2c[nH]c3ccccc23)NC(=O)[C@H](Cc2ccc(N)nc2)NC(=O)[C@H](Cc2c[nH]c3ccc(Cl)cc23)NC(=O)[C@H](CCC(=O)O)NC1=O | Interleukin-1 receptor-like 2 (IL1RL2, Homo sapiens, UniProt Q9HB29) | reporter gene (SEAP), inhibitor, HEK-Blue IL-36R reporter | HEK-Blue IL-36R cells | 0.046 µM, 6 h, with: IL-36γ 0.03 ng/mL |  | remaining activity | 44% |
| CSCC[C@H](NC(=O)[C@H](CCC(N)=O)NC(=O)[C@H](CCCCN)NC(=O)[C@H](CCCNC(=N)N)NC(=O)[C@H](Cc1ccc(O)cc1)NC(=O)[C@H](CCCNC(=N)N)NC(=O)[C@H](CO)NC(=O)[C@H](Cc1ccc(O)cc1)NC(=O)[C@H](CO)NC(=O)[C@H](CC(=O)O)NC(=O)[C@@H](NC(=O)[C@@H](N)Cc1ccccc1)[C@@H](C)O)C(=O)N[C@@H](C)C(=O)N[C@H](C(=O)N[C@@H](CCCCN)C(=O)N[C@@H](CCCCN)C(=O)N[C@@H](Cc1ccc(O)cc1)C(=O)N[C@@H](CC(C)C)C(=O)N[C@@H](C)C(=O)N[C@@H](C)C(=O)N[C@H](C(=O)N[C@@H](CC(C)C)C(=O)NCC(=O)N[C@@H](CCCCN)C(=O)N[C@@H](CCCNC(=N)N)C(=O)N[C@@H](Cc1ccc(O)cc1)C(=O)N[C@@H](CCCCN)C(=O)N[C@@H](CCC(N)=O)C(=O)N[C@@H](CCCNC(=N)N)C(=O)N[C@H](C(=O)N[C@@H](CCCCN)C(=O)N[C@@H](CC(N)=O)C(=O)N[C@@H](CCCCn1cc(C[C@H](NC(=O)CNC(=O)[C@H](CO)NC(=O)[C@H](CCCNC(=N)N)NC(=O)[C@H](CO)NC(=O)[C@H](CC(C)C)NC(=O)[C@H](CC(C)C)NC(=O)CNC(=O)[C@H](C)NC(=O)[C@H](CC(C)C)NC(=O)[C@H](CCCNC(=N)N)NC(=O)[C@H](Cc2c[nH]cn2)NC(=O)[C@@H](NC(=O)[C@@H](N)C(C)C)[C@@H](C)O)C(=O)N[C@H](C(=O)N[C@H](C(=O)N[C@@H](CCCCN)C(=O)N[C@@H](CC(N)=O)C(=O)N[C@@H](CC(N)=O)C(=O)N[C@@H](Cc2ccccc2)C(=O)N[C@H](C(=O)N2CCC[C@H]2C(=O)N[C@H](C(=O)N[C@@H](CC(N)=O)C(=O)N[C@H](C(=O)NCC(=O)N[C@@H](CO)C(=O)N[C@@H](CCCCN)C(=O)N[C@@H](C)C(=O)N[C@@H](Cc2ccccc2)C(N)=O)C(C)C)[C@@H](C)O)C(C)C)C(C)C)C(C)C)nn1)C(N)=O)C(C)C)C(C)C)C(C)C | PACAP-responsive receptors, rat | cAMP accumulation, antagonist | rat spinal cord | 15 min, with: PACAP-38 |  | A2 | 105 nM |
| O=S(=O)(Nc1ccc(CO)cc1)c1ccc(Cl)c(Cl)c1 | 17-beta-hydroxysteroid dehydrogenase 13 | substrate, NADH fluorescence |  |  |  | Km | 33 µM |
| C=CC(=O)N1CCCC(n2c(=O)c3ncccc3n(Cc3ccc(Oc4ccccc4)cc3)c2=O)C1 (stereo not shown) | PPIF (Homo sapiens, UniProt P30405) | thermal proteome profiling | cell proteome | treated |  | melting temperature | 52.7 °C and 47.3 °C |
| COC(=O)Cc1cc2c(cc1C(=O)c1ccccc1Br)OCO2 | Gria1/Gria2 | glutamate-evoked current, whole-cell patch clamp | HEK-293T | concentration not given, glutamate alone after washout, with: glutamate |  | current amplitude after recovery | 518 ± 32 pA |

Excerpt of the above:
| SMILES | target | test | system | conditions | scale | quantity | result |
| --- | --- | --- | --- | --- | --- | --- | --- |
| OC[C@H]1c2[nH]cnc2[C@H](O)[C@@H](O)[C@@H]1O | bglA (Thermotoga maritima, UniProt Q08638) | ITC |  | pH 6.8, 25 °C |  | ΔH | -18.4 ± 1.4 kJ/mol |
| CC(=O)NCCCC[C@H](NC(=O)CNC(=O)CNC(=O)[C@@H](NC(=O)[C@H](CO)NC(=O)[C@H](CCCCN)NC(=O)[C@H](CCCNC(=N)N)NC(=O)[C@H](C)NC(=O)[C@@H](NC(=O)[C@H](CCC(N)=O)NC(=O)[C@H](CCCCN)NC(=O)[C@@H](NC(=O)[C@H](CCCNC(=N)N)NC(=O)[C@H](C)N)[C@@H](C)O)[C@@H](C)O)[C@@H](C)O)C(=O)N[C@@H](C)C(=O)N1CCC[C@H]1C(=O)N[C@@H](CCCNC(=N)N)C(=O)N[C@@H](CCCCN)C(=O)N[C@@H](CCC(N)=O)C(=O)O | YEATS domain-containing protein 4 (Homo sapiens, UniProt O95619, E109A) | differential scanning fluorimetry |  | with: 50 µM peptide | relative to: buffer-only reference | ΔTm | 0.32 °C |
| N#C[Se]CCCCCCOc1ccc2c(-c3ccccc3)cc(=O)oc2c1 | CA12 (Homo sapiens, UniProt O43570) | stopped-flow CO2 hydration |  |  | relative to: Ki CA I over Ki CA XII | selectivity ratio | > 609 |
| O=C(O)Cc1cc2c(cc1C(=O)c1ccccc1I)OCO2 | Gria1/Gria2 | glutamate-evoked current, whole-cell patch clamp | HEK-293T | concentration not given | relative to: glutamate alone | current amplitude ratio | 2.43 ± 0.2 |
